Assay results of several laboratories.
Parts stem from different laboratories: compare values within a part only. Substitutions count along the parent as printed.

Study 1
Target: Fragile X messenger ribonucleoprotein 1, C-terminal low-complexity region (Fmr1, Mus musculus, UniProt P35922)
Technique: RNA Bind-n-Seq
Form: RNA
Sample: in vitro
Concentration: 200 nM
Setting: whole 134-nt RNA, ends assumed
With: 150 mM LiCl
Reference: input library
Reading: higher = stronger binding
All molecules: 7-deaza-guanosine replaces G
Shared flanks, not repeated: GGGAGUUCUACAGUCCGACGAUC … UGGAAUUCUCGGGUGUCAAGG
Oligonucleotide	log2 enrichment
ACCAUGCAGGUGGGAAUCUUUGGGAAGUGGGGCAAGGGGGGGAUAGGGAGGGGGGUAACACUUUGGGAACAGGUGGUCCCAGGUCGUUUC	1.22
AGUCCUGUGCUACACAUCGUAUGUACCGAAUCGGAAAAAGGAAAAAGGGGAAAAAGGGAAAGUAUUAUGUUACGCCGUUCGGAUCUGCAC	-0.839
CACAGACAACACGCACCCACACAGAGACAGAGGGAAGGGGUUGGGAUGGGGACAGGGUGCACAGCAGGGCGGGGUAGGACCCCAGCCCCU	1.24
AGUCCUGUGCUACACAUCGUAUGUACCGAAUCGGCCCCCGGCCCCCGGGCCCCCGGGGAAAGUAUUAUGUUACGCCGUUCGGAUCUGCAC	-0.73
ACCAUGCAGGUGGGCAUCUUUGGGAAGUGGGGCAAGGGGGGGAUAGGGAGGGGGGUAACACUUUGGGAACAGGUGGUCCCAGGAAAUUUC	1.21
UAACUAUAGAGGAGGAUCUGAUGGAUAUGGCAGUGGACGUGGAUUUGGGGAUGGCUAUAAUGGGUAUGGAGGAGGACCUGGAGGUGGCAA	0.177
CAAGUCCUGUGCUACACAUCGUAUGUACCGAAUCGGGAAAGGGUUUUUGGGAGGGAAAGUAUUAUGUUACGCCGUUCGGAUCUGCACUUC	-0.672
AGUCCUGUGCUACACAUCGUAUGUACCGAAUCGGUUUUGGGGUUUUGGGGUUUUGGGAAAGUAUUAUGUUACGCCGUUCGGAUCUGCACU	-1.58

Study 2
Target: ATF1, bZIP domain (human)
Technique: DHFR protein complementation
Sample: yeast
Setting: single substitutions, most at no-binding floor
Reference: wild-type JUN-FOS pair
Reading: higher = stronger binding
Starting sequence: JUN, bZIP domain (human); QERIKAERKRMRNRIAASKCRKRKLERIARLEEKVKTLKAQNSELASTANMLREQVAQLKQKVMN; partner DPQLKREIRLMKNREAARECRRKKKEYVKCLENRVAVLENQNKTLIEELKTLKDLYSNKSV
Variant	binding fitness [natural log]
M51F	-1.36
K34F	-1.52
K39V	-1.46
A46E	-1.48
T37I	-1.55
R53Q	-1.54
L45N	-1.49
L45F	-1.55
S47T	-1.44
L52E	-1.51
A29Q	-1.33
E44F	-1.59
R30F	-1.27
K34T	-1.53
A40M	-1.52

Study 3
Target: CCNE1, cyclin fold, Cln2 fusion (human)
Technique: yeast growth competition, sequencing
Sample: yeast
Setting: strong parent motif
Reference: not given
Reading: higher = stronger binding
Starting sequence: PKN2 docking peptide (human); VSAVRKLDFSDTM
Variant	normalised enrichment score
D8P	0.685
S10Q	5.26
R5H	0.246
S2W	3.9
S2I	3.72
S2Y	4.53
T12E	5.46
F9A	0.014
S2G	5.8
S2P	5.32
F9G	0.16
T12K	5.38
D8Y	4.71
A3L	1.87
D8H	4.53
L7Q	0.0198
K6Y	3.18
R5W	0.394
A3S	1.97
A3G	2.42
D8A	2.85
F9Y	1.79
A3M	2.3

Study 4
Substance: PhoQ, residues 284 288 289 292 302 303 AGCYAI
Technique: Sort-seq
Refers to: YFP reporter
Sample: E. coli
Setting: PhoQ-PhoP variant library
With: 10 µM Mg2+
Reference: high Mg2+ state
Reading: higher = stronger signaling
target	fold induction
PhoP, residues 12 14 15 18 19 NFFVT (Escherichia coli, UniProt P23836)	1.6
PhoP, residues 12 14 15 18 19 VGHWL (Escherichia coli, UniProt P23836)	4.32
PhoP, residues 12 14 15 18 19 LHHYF (Escherichia coli, UniProt P23836)	9.51
PhoP, residues 12 14 15 18 19 TPWTL (Escherichia coli, UniProt P23836)	0.668

Repeated from above (study 2):
Variant	binding fitness [natural log]
T37I	-1.55
E44F	-1.59
S47T	-1.44
L52E	-1.51
K34T	-1.53
